Results of several laboratories.
Each line is one published result; not all experiments were run side by side. ± marks the error that the study gave.
Sequence of UniProt P47870 (whole entry, looked up): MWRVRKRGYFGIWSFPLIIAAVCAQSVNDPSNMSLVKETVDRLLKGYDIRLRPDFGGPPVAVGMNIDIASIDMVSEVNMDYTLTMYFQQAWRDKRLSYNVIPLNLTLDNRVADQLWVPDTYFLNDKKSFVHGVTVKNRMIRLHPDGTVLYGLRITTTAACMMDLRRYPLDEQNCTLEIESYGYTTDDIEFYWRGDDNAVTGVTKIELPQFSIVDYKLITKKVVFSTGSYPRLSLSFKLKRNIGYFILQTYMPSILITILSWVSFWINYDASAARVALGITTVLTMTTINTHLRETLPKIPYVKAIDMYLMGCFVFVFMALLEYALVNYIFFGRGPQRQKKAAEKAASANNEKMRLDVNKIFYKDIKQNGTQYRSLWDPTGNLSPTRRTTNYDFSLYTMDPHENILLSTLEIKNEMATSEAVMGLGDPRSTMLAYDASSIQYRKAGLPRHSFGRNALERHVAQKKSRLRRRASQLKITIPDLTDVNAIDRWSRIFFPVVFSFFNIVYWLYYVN
Sequence of UniProt P14867 (whole entry, looked up): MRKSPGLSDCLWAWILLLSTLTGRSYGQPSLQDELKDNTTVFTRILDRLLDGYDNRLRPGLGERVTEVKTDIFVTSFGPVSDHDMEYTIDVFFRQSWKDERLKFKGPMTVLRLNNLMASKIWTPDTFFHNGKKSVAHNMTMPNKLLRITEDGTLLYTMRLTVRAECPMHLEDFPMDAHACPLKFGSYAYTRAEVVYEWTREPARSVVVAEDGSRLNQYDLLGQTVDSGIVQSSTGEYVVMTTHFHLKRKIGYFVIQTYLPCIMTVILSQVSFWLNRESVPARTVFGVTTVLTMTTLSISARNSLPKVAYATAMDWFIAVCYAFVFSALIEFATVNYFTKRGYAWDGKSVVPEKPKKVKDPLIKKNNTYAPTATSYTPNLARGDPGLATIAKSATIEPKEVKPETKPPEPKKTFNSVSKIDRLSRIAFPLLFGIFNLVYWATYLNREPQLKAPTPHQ
Sequence of UniProt P21554 (whole entry, unmodified, looked up): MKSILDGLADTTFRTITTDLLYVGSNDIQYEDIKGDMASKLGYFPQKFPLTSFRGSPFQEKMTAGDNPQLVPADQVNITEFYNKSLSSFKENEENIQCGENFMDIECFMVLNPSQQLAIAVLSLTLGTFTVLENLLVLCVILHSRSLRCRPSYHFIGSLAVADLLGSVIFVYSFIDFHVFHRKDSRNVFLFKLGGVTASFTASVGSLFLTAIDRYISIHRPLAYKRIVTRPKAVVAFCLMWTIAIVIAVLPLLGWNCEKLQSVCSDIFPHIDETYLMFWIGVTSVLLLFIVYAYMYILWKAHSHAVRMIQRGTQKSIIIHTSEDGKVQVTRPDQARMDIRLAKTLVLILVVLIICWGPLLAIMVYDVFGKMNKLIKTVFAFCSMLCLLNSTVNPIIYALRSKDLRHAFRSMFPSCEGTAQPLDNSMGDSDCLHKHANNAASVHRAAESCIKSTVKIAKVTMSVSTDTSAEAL
Sequence of UniProt P47746 (whole entry, looked up): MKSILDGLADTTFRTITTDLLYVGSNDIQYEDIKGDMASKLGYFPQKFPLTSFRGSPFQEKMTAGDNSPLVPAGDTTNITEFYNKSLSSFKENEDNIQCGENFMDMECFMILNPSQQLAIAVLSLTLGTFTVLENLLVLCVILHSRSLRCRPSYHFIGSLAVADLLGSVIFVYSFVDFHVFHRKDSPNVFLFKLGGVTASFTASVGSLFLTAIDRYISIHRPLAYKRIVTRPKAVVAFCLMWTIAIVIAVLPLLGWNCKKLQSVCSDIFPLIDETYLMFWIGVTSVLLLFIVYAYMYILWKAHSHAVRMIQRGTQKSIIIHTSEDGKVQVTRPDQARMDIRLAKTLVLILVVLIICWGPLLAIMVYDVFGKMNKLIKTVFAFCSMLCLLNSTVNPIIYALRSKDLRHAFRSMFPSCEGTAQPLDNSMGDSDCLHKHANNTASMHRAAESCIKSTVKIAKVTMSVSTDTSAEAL
Sequence of UniProt P0C0V0 (whole entry, unmodified, looked up): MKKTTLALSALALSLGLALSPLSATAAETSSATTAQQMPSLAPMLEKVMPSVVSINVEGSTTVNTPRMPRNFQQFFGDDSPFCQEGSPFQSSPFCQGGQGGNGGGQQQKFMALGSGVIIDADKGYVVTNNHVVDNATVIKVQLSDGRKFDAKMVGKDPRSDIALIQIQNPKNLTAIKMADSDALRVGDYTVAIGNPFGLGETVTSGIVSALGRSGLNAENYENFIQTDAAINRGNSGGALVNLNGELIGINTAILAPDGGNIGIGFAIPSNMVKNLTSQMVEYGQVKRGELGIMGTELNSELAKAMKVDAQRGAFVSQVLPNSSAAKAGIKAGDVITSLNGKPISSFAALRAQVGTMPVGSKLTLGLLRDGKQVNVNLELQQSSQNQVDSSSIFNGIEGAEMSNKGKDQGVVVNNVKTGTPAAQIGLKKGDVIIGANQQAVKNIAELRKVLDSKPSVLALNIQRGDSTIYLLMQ
Sequence of UniProt P0A725 (whole entry, looked up): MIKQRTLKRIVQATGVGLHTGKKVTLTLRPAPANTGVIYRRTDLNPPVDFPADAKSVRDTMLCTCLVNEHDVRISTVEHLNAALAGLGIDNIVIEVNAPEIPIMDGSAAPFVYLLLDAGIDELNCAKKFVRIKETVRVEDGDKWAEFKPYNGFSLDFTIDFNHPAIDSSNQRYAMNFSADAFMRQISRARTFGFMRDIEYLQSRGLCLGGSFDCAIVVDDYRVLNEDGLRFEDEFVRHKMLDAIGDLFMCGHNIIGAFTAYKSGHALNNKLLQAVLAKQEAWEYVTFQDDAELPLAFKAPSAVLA
Sequence of UniProt P34972 (whole entry, looked up): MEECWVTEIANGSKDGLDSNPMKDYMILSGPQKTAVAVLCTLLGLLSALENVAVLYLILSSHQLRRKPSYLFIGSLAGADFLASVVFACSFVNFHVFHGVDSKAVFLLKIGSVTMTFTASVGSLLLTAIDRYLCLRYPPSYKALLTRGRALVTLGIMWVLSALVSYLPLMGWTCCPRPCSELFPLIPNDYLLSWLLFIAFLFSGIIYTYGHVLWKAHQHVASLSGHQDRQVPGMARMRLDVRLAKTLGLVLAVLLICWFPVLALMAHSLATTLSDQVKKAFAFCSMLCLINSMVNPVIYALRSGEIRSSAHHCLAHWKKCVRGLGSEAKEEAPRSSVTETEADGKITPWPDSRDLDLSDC

SMILES | target or system | test | test system | conditions | how to read | measurement | result
CC[C@H](C)[C@H](N)C(=O)N[C@H](C(=O)NCC(=O)N[C@H](C(=O)N[C@H](C(=O)N[C@@H](CC(=O)O)C(=O)N[C@@H](CO)C(=O)N[C@@H](CC(C)C)C(=O)N[C@H](C(=O)N[C@@H](CCCCN)C(=O)N[C@@H](Cc1c[nH]c2ccccc12)C(=O)N[C@H](C(=O)N[C@H](C(=O)N[C@@H](CC(=O)O)C(=O)N[C@H](C(=O)N[C@H](C(=O)N[C@@H](CC(N)=O)C(=O)N[C@@H](CCCCN)C(=O)N[C@@H](Cc1ccccc1)C(=O)N[C@H](C(=O)N[C@@H](CCCCN)C(=O)N[C@@H](CCCCN)C(=O)O)[C@@H](C)O)C(C)C)[C@@H](C)O)[C@@H](C)CC)[C@@H](C)CC)C(C)C)[C@@H](C)CC)[C@@H](C)O)[C@@H](C)CC |  | lipid vesicle dissociation | POPC vesicles | pH 7.5 |  | koff | 0.17 s^–1
CC(C)C[C@H](NC(=O)[C@H](Cc1ccccc1)NC(=O)CNC(=O)CNC(=O)[C@@H](N)Cc1ccc(O)cc1)C(=O)O |  | K+ current, agonist, photo-uncaging | rat locus coeruleus neurons | dendritic currents |  | reversal potential | -132 ± 4.8 mV
CCOC(=O)C1C(OC(c2ccc(Cl)cc2)c2ccc(Cl)cc2)CC2CCC1N2C (single isomer, unassigned) | rat L-type calcium channel | binding, radioligand displacement | rat cortex | dihydropyridine site, inactive if below 75% at 10000 nM, together with: [3H]nitrendipine |  | Ki | inactive
C=C(C)C1C2OC(=O)C1C1(O)CC3OC34C(=O)OC2C14C (stereo not shown) | GABA-A receptor; GABA-A site (alpha1/beta2 interface) (Homo sapiens, UniProt P14867+P47870) | GABA-induced current, antagonist, two-electrode voltage clamp | Xenopus oocytes | together with: GABA at EC50 |  | Hill coefficient | 1 ± 0.09
O=C(N=P12CN3CN(CN(C3)C1)C2)c1ccccn1.[Cl][Pd][Cl] | Albumin (ALB, Homo sapiens, UniProt P02768) | adduct reversibility, circular dichroism |  | concentration not given, 1 h, together with: 3-fold citric acid |  | CD band decrease | 12%
CCCCCn1cc(C(=O)c2ccc3ccccc3c2)c2ccccc21 | CNR1 (Homo sapiens, UniProt P21554, I267L) | Gαi1 engagement, agonist, BRET |  |  | reference: wild type | Emax decrease | ~40%
O=C1C(=Cc2cn(Cc3ccc(F)cc3)c3ccccc23)N2CCC1CC2 | Cnr1 (Mus musculus, UniProt P47746) | adenylyl cyclase activity | Neuro2A | 10 µM |  | inhibition | 55.5 ± 4.4%
CC[C@H](C)[C@H](NC(=O)[C@H](CCC(N)=O)NC(=O)[C@H](CC(C)C)NC(=O)[C@@H](NC(=O)CNC(=O)[C@H](Cc1ccc(O)cc1)NC(=O)[C@H](CC(=O)O)NC(=O)[C@@H](NC(=O)[C@H](CO)NC(=O)CNC(=O)[C@H](CC(=O)O)NC(=O)[C@@H](NC(=O)[C@H](CC(N)=O)NC(=O)[C@H](CCCNC(=N)N)NC(=O)[C@H](CC(N)=O)NC(=O)[C@@H](NC(=O)[C@H](C)NC(=O)[C@H](CCC(N)=O)NC(=O)[C@@H](NC(=O)[C@H](CC(N)=O)NC(=O)[C@H](Cc1ccccc1)NC(=O)[C@H](CC(N)=O)NC(=O)[C@H](CO)NC(=O)[C@H](CCC(=O)O)NC(=O)[C@H](Cc1ccccc1)NC(=O)[C@H](CCCCN)NC(=O)[C@H](C)NC(=O)[C@H](C)NC(=O)[C@H](CO)NC(=O)[C@@H](NC(=O)[C@H](Cc1c[nH]c2ccccc12)NC(=O)[C@H](CC(N)=O)NC(=O)CNC(=O)[C@H](CC(C)C)NC(=O)[C@H](CO)NC(=O)[C@H](Cc1ccc(O)cc1)NC(=O)CNC(=O)[C@H](CCCNC(=N)N)NC(=O)[C@H](Cc1ccc(O)cc1)NC(=O)[C@H](CC(N)=O)NC(=O)[C@@H](N)CC(=O)O)C(C)C)[C@@H](C)O)[C@@H](C)O)[C@@H](C)O)[C@@H](C)O)[C@@H](C)CC)C(=O)O | Periplasmic serine endoprotease DegP (degP, Escherichia coli, UniProt P0C0V0, S236A) | oligomer formation, sedimentation velocity |  | 30 µM, together with: protein 20 µM |  | 18-mers fraction | 24%
CC(C)C[C@H](NC(=O)[C@H](Cc1ccccc1)NC(=O)CNC(=O)CNC(=O)[C@@H](N)Cc1ccc(OC(C(=O)O)c2ccccc2[N+](=O)[O-])cc1)C(=O)O (stereo partly shown) |  | K+ current, agonist, photo-uncaging | rat locus coeruleus neurons |  |  | time to peak current | 1 to 2 s
C[C@@](O)(C(F)F)[C@H](NC(=O)c1ccc(C#CC#CC2CC2)cc1)C(=O)NO | UDP-3-O-acyl-N-acetylglucosamine deacetylase (Escherichia coli K-12, UniProt P0A725) | enzyme activity, inhibitor |  |  |  | k6 (EI* to EI rate) | 0.0058 ± 0.0006 min⁻¹
CC[C@H](C)[C@H](N)C(=O)N[C@H](C(=O)N[C@@H](CCCCN)C(=O)N[C@H](C(=O)N[C@H](C(=O)NCC(=O)N[C@@H](CC(=O)O)C(=O)N[C@@H](CC(C)C)C(=O)N[C@H](C(=O)N[C@@H](CCCCN)C(=O)N[C@@H](Cc1c[nH]c2ccccc12)C(=O)N[C@H](C(=O)N[C@H](C(=O)N[C@@H](CC(=O)O)C(=O)N[C@H](C(=O)N[C@H](C(=O)N[C@@H](CC(N)=O)C(=O)N[C@@H](CO)C(=O)N[C@@H](Cc1ccccc1)C(=O)N[C@H](C(=O)N[C@@H](CCCCN)C(=O)N[C@@H](CCCCN)C(=O)O)[C@@H](C)O)C(C)C)[C@@H](C)O)[C@@H](C)CC)[C@@H](C)CC)C(C)C)[C@@H](C)CC)[C@@H](C)O)[C@@H](C)CC |  | lipid vesicle dissociation | POPC vesicles | pH 7.5 |  | koff | 0.11 s^–1
CC(C)C[C@H](NC(=O)CNC(=O)[C@H](CCC(=O)O)NC(=O)[C@H](CCCCN)NC(=O)[C@H](CC(C)C)NC(=O)[C@H](C)NC(=O)[C@H](C)NC(=O)CNC(=O)[C@H](C)NC(=O)[C@H](CCCCN)NC(=O)[C@H](CCC(=O)O)NC(=O)[C@H](CC(C)C)NC(=O)[C@H](CCCCN)NC(=O)[C@H](CCCCN)NC(=O)[C@H](CC(C)C)NC(=O)[C@H](CC(C)C)NC(=O)[C@H](CCCCN)NC(=O)[C@H](Cc1c[nH]c2ccccc12)NC(=O)[C@@H](N)CCCCN)C(=O)N[C@@H](CC(C)C)C(=O)N[C@@H](CCCCN)C(=O)N[C@@H](C)C(=O)NCC(=O)N1CCC[C@H]1C(=O)N[C@@H](C)C(=O)N[C@@H](CC(C)C)C(=O)N[C@@H](C)C(=O)N[C@@H](CC(C)C)C(=O)N[C@@H](CC(C)C)C(=O)NCC(=O)N[C@@H](C)C(=O)N[C@@H](C)C(=O)N[C@@H](C)C(=O)N[C@@H](C)C(=O)N[C@@H](CC(C)C)C(=O)N[C@@H](C)C(=O)N[C@@H](CCCCN)C(N)=O |  | membrane binding, stopped-flow FRET | POPC vesicles | room temperature, extrapolated from POPC/POPG |  | koff | 140 s⁻¹
CC[C@H](C)[C@H](NC(=O)[C@H](CC(N)=O)NC(=O)[C@H](CCCCN)NC(=O)[C@@H](NC(=O)[C@@H](N)CC(C)C)[C@@H](C)CC)C(=O)NCC(=O)N[C@H](C(=O)N[C@H](C(=O)N[C@H](C(=O)N[C@@H](CO)C(=O)N[C@@H](CCCCN)C(=O)N[C@H](C(=O)N[C@H](C(=O)N[C@@H](CCCCN)C(=O)N[C@H](C(=O)N[C@H](C(=O)N[C@@H](Cc1c[nH]c2ccccc12)C(=O)N[C@@H](CCCCN)C(=O)N[C@@H](Cc1ccccc1)C(=O)N[C@H](C(=O)N[C@@H](CC(=O)O)C(=O)N[C@@H](CC(=O)O)C(=O)O)[C@@H](C)O)C(C)C)[C@@H](C)O)[C@@H](C)CC)[C@@H](C)CC)C(C)C)[C@@H](C)CC)[C@@H](C)O |  | lipid vesicle dissociation | POPC vesicles | pH 7.5 |  | koff | 6.1 s^–1
CC(C)C[C@H](NC(=O)CN)C(=O)NCC(=O)N[C@@H](CCCCN)C(=O)N[C@@H](CC(C)C)C(=O)N[C@@H](CC(C)C)C(=O)N[C@@H](Cc1c[nH]cn1)C(=O)N[C@@H](C)C(=O)N[C@@H](C)C(=O)N[C@@H](CCCCN)C(=O)N[C@@H](CCCCN)C(=O)N[C@@H](CC(C)C)C(=O)NCC(=O)N[C@@H](CCCCN)C(=O)N[C@@H](C)C(=O)N[C@@H](Cc1c[nH]c2ccccc12)C(=O)N[C@@H](CC(C)C)C(=O)NCC(=O)N[C@@H](CCC(=O)O)C(=O)N[C@@H](CC(C)C)C(=O)N[C@@H](CC(C)C)C(=O)N[C@@H](C)C(=O)N[C@@H](C)C(=O)O |  | membrane binding, stopped-flow FRET | POPC vesicles | room temperature, extrapolated from POPC/POPG |  | koff | 24 s⁻¹
CC[C@H](C)[C@H](N)C(=O)N[C@H](C(=O)N[C@@H](CO)C(=O)N[C@H](C(=O)N[C@H](C(=O)NCC(=O)N[C@@H](CC(=O)O)C(=O)N[C@@H](CC(C)C)C(=O)N[C@H](C(=O)N[C@@H](CCCCN)C(=O)N[C@@H](Cc1c[nH]c2ccccc12)C(=O)N[C@H](C(=O)N[C@H](C(=O)N[C@@H](CC(=O)O)C(=O)N[C@H](C(=O)N[C@H](C(=O)N[C@@H](CC(N)=O)C(=O)N[C@@H](CCCCN)C(=O)N[C@@H](Cc1ccccc1)C(=O)N[C@H](C(=O)N[C@@H](CCCCN)C(=O)N[C@@H](CCCCN)C(=O)O)[C@@H](C)O)C(C)C)[C@@H](C)O)[C@@H](C)CC)[C@@H](C)CC)C(C)C)[C@@H](C)CC)[C@@H](C)O)[C@@H](C)CC |  | lipid vesicle binding, stopped-flow FRET | POPC vesicles | pH 7.5 |  | kon | 7100 M^–1 s^–1
COC(=O)c1ccc2c(C=C3C(=O)C4CCN3CC4)cn(Cc3ccccc3)c2c1 | CNR2 (Homo sapiens, UniProt P34972) | cAMP level increase | CHO expressing human CB2 | together with: forskolin |  | Emax | 200 ± 8.6%

For quick reference, copied from above:
SMILES | target or system | test | test system | conditions | how to read | measurement | result
C[C@@](O)(C(F)F)[C@H](NC(=O)c1ccc(C#CC#CC2CC2)cc1)C(=O)NO | UDP-3-O-acyl-N-acetylglucosamine deacetylase (Escherichia coli K-12, UniProt P0A725) | enzyme activity, inhibitor |  |  |  | k6 (EI* to EI rate) | 0.0058 ± 0.0006 min⁻¹
